Published values collected from several papers.
Every numbered part comes from another study and shows a few of its results, in no order.
UniProt Q99558, sequence (whole entry, looked up): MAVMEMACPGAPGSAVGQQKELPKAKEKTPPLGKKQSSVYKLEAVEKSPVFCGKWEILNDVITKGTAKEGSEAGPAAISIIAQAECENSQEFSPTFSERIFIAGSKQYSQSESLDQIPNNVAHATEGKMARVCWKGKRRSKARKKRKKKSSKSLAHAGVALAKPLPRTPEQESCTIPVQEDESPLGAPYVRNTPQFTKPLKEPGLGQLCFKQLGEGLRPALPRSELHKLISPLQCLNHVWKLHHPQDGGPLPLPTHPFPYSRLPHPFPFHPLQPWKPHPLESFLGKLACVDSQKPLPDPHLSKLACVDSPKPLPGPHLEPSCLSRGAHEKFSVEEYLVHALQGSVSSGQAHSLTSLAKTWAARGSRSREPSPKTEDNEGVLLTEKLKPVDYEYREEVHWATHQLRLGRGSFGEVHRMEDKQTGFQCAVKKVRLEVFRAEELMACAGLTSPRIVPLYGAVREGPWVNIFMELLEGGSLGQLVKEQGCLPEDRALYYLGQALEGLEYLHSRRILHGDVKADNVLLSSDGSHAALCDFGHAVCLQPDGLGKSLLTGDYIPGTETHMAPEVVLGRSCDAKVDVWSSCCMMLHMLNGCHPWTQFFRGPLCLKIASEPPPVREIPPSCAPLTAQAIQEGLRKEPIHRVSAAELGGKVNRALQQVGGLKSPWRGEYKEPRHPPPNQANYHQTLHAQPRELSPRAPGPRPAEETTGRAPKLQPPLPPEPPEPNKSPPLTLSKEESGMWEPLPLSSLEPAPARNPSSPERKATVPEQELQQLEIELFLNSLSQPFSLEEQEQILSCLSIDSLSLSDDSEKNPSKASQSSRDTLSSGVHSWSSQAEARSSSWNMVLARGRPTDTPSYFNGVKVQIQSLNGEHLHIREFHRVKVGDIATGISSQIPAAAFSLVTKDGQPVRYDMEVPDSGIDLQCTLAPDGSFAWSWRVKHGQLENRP
UniProt P54760, sequence (whole entry, looked up): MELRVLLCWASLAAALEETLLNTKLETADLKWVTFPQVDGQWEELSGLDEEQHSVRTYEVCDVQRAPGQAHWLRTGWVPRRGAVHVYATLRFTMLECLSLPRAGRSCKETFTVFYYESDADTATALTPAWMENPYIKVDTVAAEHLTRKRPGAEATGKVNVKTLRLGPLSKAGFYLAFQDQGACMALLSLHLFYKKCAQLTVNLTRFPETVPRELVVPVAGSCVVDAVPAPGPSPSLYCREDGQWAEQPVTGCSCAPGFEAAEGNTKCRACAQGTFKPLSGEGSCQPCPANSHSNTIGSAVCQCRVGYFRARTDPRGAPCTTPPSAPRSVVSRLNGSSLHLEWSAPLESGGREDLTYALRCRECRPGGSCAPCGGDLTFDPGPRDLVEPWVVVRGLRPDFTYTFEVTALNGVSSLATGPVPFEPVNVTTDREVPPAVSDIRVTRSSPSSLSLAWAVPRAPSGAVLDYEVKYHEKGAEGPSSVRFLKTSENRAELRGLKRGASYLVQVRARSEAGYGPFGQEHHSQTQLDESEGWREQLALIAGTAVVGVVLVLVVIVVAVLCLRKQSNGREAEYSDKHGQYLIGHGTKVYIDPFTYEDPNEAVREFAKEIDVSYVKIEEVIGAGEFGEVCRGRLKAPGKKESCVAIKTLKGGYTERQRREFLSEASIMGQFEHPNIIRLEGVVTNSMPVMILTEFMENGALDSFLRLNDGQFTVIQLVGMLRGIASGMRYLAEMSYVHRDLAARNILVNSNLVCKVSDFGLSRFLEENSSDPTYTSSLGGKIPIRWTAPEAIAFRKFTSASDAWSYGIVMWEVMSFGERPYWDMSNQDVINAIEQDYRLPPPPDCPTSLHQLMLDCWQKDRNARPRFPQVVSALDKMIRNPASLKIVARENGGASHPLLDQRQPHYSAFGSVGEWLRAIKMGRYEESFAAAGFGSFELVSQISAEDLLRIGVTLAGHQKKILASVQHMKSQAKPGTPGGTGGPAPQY
UniProt P30530, sequence (whole entry, looked up): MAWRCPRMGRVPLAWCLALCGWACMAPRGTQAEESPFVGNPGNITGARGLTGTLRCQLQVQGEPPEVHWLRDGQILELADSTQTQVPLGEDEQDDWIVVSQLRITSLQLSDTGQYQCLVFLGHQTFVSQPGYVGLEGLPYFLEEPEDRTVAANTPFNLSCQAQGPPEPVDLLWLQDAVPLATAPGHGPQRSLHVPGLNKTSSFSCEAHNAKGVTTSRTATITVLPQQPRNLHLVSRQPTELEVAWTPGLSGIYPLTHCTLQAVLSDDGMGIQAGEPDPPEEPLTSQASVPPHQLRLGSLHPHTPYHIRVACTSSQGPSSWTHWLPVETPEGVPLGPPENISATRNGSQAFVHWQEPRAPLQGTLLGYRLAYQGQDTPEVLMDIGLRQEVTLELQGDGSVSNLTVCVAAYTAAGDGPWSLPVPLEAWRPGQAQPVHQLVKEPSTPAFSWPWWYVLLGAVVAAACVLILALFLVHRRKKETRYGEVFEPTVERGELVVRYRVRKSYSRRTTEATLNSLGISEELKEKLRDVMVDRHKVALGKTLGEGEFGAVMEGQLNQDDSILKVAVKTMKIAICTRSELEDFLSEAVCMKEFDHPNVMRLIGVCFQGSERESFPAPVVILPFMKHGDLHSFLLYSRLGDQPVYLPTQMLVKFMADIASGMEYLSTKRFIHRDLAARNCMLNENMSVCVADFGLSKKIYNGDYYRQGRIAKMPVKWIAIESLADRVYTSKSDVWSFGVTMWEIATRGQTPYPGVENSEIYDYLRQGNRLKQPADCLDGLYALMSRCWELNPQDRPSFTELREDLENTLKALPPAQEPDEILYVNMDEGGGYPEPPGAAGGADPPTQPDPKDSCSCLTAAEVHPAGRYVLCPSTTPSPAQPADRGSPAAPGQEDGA
UniProt Q14012, sequence (whole entry, looked up): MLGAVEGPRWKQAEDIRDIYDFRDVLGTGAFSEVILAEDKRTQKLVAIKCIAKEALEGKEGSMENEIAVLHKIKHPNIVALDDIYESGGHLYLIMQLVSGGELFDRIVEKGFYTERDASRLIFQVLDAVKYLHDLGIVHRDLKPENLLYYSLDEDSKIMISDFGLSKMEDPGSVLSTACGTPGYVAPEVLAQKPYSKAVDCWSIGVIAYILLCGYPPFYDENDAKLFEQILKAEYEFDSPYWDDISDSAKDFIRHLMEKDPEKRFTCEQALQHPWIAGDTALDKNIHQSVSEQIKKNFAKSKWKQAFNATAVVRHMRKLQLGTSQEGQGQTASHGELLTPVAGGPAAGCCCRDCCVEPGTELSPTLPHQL
UniProt Q08345, sequence (whole entry, looked up): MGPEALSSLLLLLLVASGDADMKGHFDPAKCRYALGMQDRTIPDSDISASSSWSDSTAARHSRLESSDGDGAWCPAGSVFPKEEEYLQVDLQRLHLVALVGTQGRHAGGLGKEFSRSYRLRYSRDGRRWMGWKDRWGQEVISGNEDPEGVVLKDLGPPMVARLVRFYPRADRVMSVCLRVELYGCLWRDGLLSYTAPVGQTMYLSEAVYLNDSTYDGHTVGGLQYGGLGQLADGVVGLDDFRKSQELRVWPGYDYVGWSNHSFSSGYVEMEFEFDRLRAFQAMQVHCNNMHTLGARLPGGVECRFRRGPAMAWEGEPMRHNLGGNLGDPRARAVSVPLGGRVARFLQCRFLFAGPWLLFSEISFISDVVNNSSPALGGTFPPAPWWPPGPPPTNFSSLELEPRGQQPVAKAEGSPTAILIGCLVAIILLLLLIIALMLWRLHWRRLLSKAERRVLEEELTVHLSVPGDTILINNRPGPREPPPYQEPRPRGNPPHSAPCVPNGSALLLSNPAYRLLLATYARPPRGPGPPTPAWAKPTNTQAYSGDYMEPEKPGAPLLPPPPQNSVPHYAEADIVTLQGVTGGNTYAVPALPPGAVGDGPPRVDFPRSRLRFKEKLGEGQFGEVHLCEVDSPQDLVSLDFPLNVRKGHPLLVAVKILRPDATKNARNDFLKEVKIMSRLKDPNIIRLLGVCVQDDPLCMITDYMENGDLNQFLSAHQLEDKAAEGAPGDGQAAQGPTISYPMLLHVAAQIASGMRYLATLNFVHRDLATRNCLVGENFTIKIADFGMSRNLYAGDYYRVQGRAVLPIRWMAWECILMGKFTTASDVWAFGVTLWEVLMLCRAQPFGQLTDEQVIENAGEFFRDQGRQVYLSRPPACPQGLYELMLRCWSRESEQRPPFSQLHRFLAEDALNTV

Study 1
Target: Beta-1 adrenergic receptor (ADRB1, Homo sapiens, UniProt P08588)
UniProt P08588, sequence (whole entry, looked up): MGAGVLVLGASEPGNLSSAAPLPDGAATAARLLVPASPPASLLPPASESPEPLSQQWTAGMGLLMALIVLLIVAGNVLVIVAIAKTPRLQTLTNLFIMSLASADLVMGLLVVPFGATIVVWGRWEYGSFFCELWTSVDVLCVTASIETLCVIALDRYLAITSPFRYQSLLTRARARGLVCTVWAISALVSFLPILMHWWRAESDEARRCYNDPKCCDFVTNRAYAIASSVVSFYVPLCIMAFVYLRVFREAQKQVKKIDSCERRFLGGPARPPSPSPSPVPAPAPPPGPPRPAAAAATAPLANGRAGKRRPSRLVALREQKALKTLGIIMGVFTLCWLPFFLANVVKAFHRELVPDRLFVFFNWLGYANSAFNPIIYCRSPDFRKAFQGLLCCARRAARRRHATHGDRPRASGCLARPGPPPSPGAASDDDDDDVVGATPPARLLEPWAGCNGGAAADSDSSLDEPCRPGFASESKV
Mode: agonist
Endpoint: EC50
Cc1cc(=O)oc2cc(O)c(O)cc12: ≥ 100 µM
COc1ccccc1-c1nnc(SCc2cc(=O)oc3cc(O)ccc23)n1C: ≥ 100 µM
c1cc2nnc(C3CCC3)n2nc1N1CCCNCC1: ≥ 100 µM
CC(C)NC(=O)c1cc(-c2cccs2)nc2ccccc12: ≥ 100 µM
Cc1nn(CC(=O)NCc2ccc(N(C)C)cc2)c(=O)c2nc(C(C)C)sc12: ≥ 100 µM
COc1ccccc1-c1ncc2c(n1)OCCN(c1cccc(C(F)(F)F)c1)C2=O: ≥ 100 µM
CN(C)c1ccc2c(c1)OC(N)=C(C#N)C2c1cccc(C(F)(F)F)c1 (stereo not drawn): ≥ 100 µM
CC1CCCN1C(=O)c1cc(-c2cnn(C(C)C)c2)nc2cc(F)ccc12 (stereo not drawn): ≥ 100 µM
COc1ccc(F)cc1-c1ncc2c(n1)OCCN(c1cccc(C(F)(F)F)c1)C2=O: ≥ 100 µM
FC(F)(F)c1nnc2ccc(N3CCCN(c4cnc5ccccc5n4)CC3)nn12: ≥ 100 µM
CCN(CC)c1ccc2c(c1)OC(=O)/C(=C\Nc1ccc(CC(=O)O)c(-c3c4c(nc5ccccc35)CCC(C(=O)NN)C4)c1)C2=O (stereo not drawn): ≥ 100 µM
O=C(Nc1ccc(Oc2ccnc3[nH]ccc23)c(F)c1)c1cccn(-c2ccc(F)cc2)c1=O: ≥ 100 µM
COc1cc(O)ccc1OCCNCC(O)COc1cccc2[nH]c3ccccc3c12 (stereo not drawn): ≥ 100 µM
Cc1c[nH]c(=O)n(CCCN2CCN(c3ccccc3OCC(F)(F)F)CC2)c1=O: ≥ 100 µM
Cc1cc(C(=O)N2CCc3c(nc(C)nc3N(C)C)C2)c2cccc(C)c2n1: ≥ 100 µM

Study 2
Compound: C[C@H](c1cccc(C#N)c1)n1cc(Cl)cc(C(N)=O)c1=N
Tested at: 1 µM
Endpoint: remaining binding
Receptor-type tyrosine-protein kinase FLT3, autoinhibited (FLT3, Homo sapiens, UniProt P36888); cell-free assay, competition with immobilised ligand: 90%
Calcium/calmodulin-dependent protein kinase type 1B (PNCK, Homo sapiens, UniProt Q6P2M8); cell-free assay, competition with immobilised ligand: 89%
Leucine-rich repeat serine/threonine-protein kinase 2 (LRRK2, Homo sapiens, UniProt Q5S007); cell-free assay, competition with immobilised ligand: 100%
Epithelial discoidin domain-containing receptor 1 (DDR1, Homo sapiens, UniProt Q08345); cell-free assay, competition with immobilised ligand: 98%
Calcium/calmodulin-dependent protein kinase type 1 (CAMK1, Homo sapiens, UniProt Q14012); cell-free assay, competition with immobilised ligand: 100%
Tyrosine-protein kinase receptor UFO (AXL, Homo sapiens, UniProt P30530); cell-free assay, competition with immobilised ligand: 100%
Mitogen-activated protein kinase 6 (MAPK6, Homo sapiens, UniProt Q16659); cell-free assay, competition with immobilised ligand: 0%
AP2-associated protein kinase 1 (AAK1, Homo sapiens, UniProt Q2M2I8); binding: 100%
Mitogen-activated protein kinase kinase kinase 14 (MAP3K14, Homo sapiens, UniProt Q99558); cell-free assay, competition with immobilised ligand: 62%
Tyrosine-protein kinase ABL1, phosphorylated (ABL1, Homo sapiens, UniProt P00519); cell-free assay, competition with immobilised ligand: 77%
Cyclin-G-associated kinase (GAK, Homo sapiens, UniProt O14976); cell-free assay, competition with immobilised ligand: 100%
Serine/threonine-protein kinase TNNI3K (TNNI3K, Homo sapiens, UniProt Q59H18); cell-free assay, competition with immobilised ligand: 92%
RAF proto-oncogene serine/threonine-protein kinase (RAF1, Homo sapiens, UniProt P04049); cell-free assay, competition with immobilised ligand: 100%
Phosphatidylinositol 4,5-bisphosphate 3-kinase catalytic subunit alpha isoform (PIK3CA, Homo sapiens, UniProt P42336, C420R); cell-free assay, competition with immobilised ligand: 100%
Ephrin type-A receptor 2 (EPHA2, Homo sapiens, UniProt P29317); cell-free assay, competition with immobilised ligand: 89%
Tyrosine-protein kinase Lyn (LYN, Homo sapiens, UniProt P07948); cell-free assay, competition with immobilised ligand: 81%
Serine/threonine-protein kinase 4 (STK4, Homo sapiens, UniProt Q13043); cell-free assay, competition with immobilised ligand: 100%
Ephrin type-B receptor 4 (EPHB4, Homo sapiens, UniProt P54760); cell-free assay, competition with immobilised ligand: 89%

Study 3
Target: Bromodomain-containing protein 4, BD1 (BRD4, Homo sapiens, UniProt O60885)
Tested at: 50 µM
Endpoint: inhibition
CCN(CCO)CCCOc1ccc2c(Nc3cc(CC(=O)Nc4cccc(F)c4)[nH]n3)ncnc2c1: 27.9%
Cn1c(Nc2ccc(C(F)(F)F)cc2)nc2cc(Oc3ccnc(-c4ncc(C(F)(F)F)[nH]4)c3)ccc21: 37.9%
Cc1cnc(NC(=O)Nc2cc(Br)c(C)cc2OC[C@@H]2CNCCO2)cn1: 35.1%
Oc1cccc(-c2nc(N3CCOCC3)c3oc4ncccc4c3n2)c1: 1.75%
C[S+]([O-])c1ccc(-c2nc(-c3ccncc3)c(-c3ccc(F)cc3)[nH]2)cc1 (stereo not drawn): 44.9%
CN(C)S(=O)(=O)c1ccc2c(c1)/C(=C/c1cc3c([nH]1)CCCC3)C(=O)N2: 61%
O=C(NCCCNc1nc(Nc2cccc(NC(=O)N3CCCC3)c2)ncc1I)c1cccs1: 25.7%
Cc1c(CN2CCN(C(=O)[C@H](C)O)CC2)sc2c(N3CCOCC3)nc(-c3cnc(N)nc3)nc12: 8.1%
COC(=O)c1ccc2c(c1)NC(=O)/C2=C(\Nc1ccc(N(C)C(=O)CN2CCN(C)CC2)cc1)c1ccccc1: 18.8%
C[C@H](Nc1ncnc2nc[nH]c12)c1cc2cccc(Cl)c2c(=O)n1-c1ccccc1: 5.45%

Study 4
Target: RAC-alpha serine/threonine-protein kinase (AKT1, Homo sapiens, UniProt P31749)
UniProt P31749, sequence (whole entry, looked up): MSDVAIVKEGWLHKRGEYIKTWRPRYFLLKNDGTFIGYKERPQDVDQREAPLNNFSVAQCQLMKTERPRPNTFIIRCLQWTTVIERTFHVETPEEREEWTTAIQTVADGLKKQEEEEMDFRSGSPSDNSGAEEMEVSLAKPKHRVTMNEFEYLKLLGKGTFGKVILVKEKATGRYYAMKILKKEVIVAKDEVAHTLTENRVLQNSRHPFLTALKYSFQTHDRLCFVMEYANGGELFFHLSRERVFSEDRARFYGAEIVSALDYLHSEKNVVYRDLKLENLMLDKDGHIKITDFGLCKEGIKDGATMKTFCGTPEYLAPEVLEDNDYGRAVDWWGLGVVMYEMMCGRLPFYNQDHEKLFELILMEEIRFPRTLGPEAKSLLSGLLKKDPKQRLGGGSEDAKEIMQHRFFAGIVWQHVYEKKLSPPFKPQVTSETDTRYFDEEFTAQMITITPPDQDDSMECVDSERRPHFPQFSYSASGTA
Read-out: enzyme activity
Mode: inhibitor
Tested at: 0.5 µM
Relative to: control
Endpoint: remaining activity
CN(C)S(=O)(=O)c1ccc2c(c1)/C(=C/c1cc3c([nH]1)CCCC3)C(=O)N2: 107%
O=C1NC(=O)c2c1c1c3ccccc3[nH]c1n1cncc21: 102%
O=Nc1c(-c2c(O)[nH]c3cc(Br)ccc23)[nH]c2ccccc12: 97.7%
N#Cc1cnc2cnc(NCc3cccnc3)cc2c1Nc1ccc(F)c(Cl)c1: 98.6%
O=c1cc(N2CCOCC2)oc2c(-c3ccccc3)cccc12: 95.7%
O=C1Cc2c([nH]c3ccc(Br)cc23)-c2ccccc2N1: 99.9%
Cc1cc(Nc2cc(N3CCN(C)CC3)nc(Sc3ccc(NC(=O)C4CC4)cc3)n2)[nH]n1: 99.2%
O=C1NC(=O)c2c1c1c3ccccc3[nH]c1c1[nH]c3cc(Br)ccc3c21: 101%
CN1CCN(c2ccc3nc(-c4c(N)c5c(F)cccc5[nH]c4=O)[nH]c3c2)CC1: 98.5%
Cc1ccc(S(=O)(=O)/C=C/C#N)cc1: 112%
O=C1Nc2ccc(Br)cc2/C1=C/c1cc2c([nH]1)CCCC2: 99.8%
O=C(c1cc2cc(O)ccc2[nH]1)c1cc2cc(O)ccc2[nH]1: 98.2%
COc1cccc(-c2cc(=O)c3ccccc3o2)c1N: 93.8%
CCCCc1c(-c2ccc(OC)cc2)[nH]c2nccnc12: 113%
CCCNC(=O)Nc1ccc(Oc2ncnc3cc(OC)c(OC)cc23)cc1Cl: 93%
COc1ccc(COc2ccc(Cc3cnc(N)nc3N)cc2OC)cc1: 97.4%
c1ccc2c(-c3ccncc3)c[nH]c2c1: 100%
O=C1Nc2ccccc2/C1=C\c1c(Cl)[nH]c2ccccc12: 94%
COc1ccc2c(c1)c(C1=C(c3c[nH]c4ccccc34)C(=O)NC1=O)cn2CCCN(C)C: 99%
c1ccc(-c2n[nH]c3c2oc2ccccc23)cc1: 86.9%

For quick reference, copied from above (study 3):
COC(=O)c1ccc2c(c1)NC(=O)/C2=C(\Nc1ccc(N(C)C(=O)CN2CCN(C)CC2)cc1)c1ccccc1: 18.8%
Cn1c(Nc2ccc(C(F)(F)F)cc2)nc2cc(Oc3ccnc(-c4ncc(C(F)(F)F)[nH]4)c3)ccc21: 37.9%
Oc1cccc(-c2nc(N3CCOCC3)c3oc4ncccc4c3n2)c1: 1.75%
C[C@H](Nc1ncnc2nc[nH]c12)c1cc2cccc(Cl)c2c(=O)n1-c1ccccc1: 5.45%
Cc1cnc(NC(=O)Nc2cc(Br)c(C)cc2OC[C@@H]2CNCCO2)cn1: 35.1%
